Measured values gathered from unrelated publications.
Compare with care: the assays were run in different laboratories. Several values in a cell are separate wells, animals, samples, runs or records.
Chain of UniProt P05177 (whole entry, looked up): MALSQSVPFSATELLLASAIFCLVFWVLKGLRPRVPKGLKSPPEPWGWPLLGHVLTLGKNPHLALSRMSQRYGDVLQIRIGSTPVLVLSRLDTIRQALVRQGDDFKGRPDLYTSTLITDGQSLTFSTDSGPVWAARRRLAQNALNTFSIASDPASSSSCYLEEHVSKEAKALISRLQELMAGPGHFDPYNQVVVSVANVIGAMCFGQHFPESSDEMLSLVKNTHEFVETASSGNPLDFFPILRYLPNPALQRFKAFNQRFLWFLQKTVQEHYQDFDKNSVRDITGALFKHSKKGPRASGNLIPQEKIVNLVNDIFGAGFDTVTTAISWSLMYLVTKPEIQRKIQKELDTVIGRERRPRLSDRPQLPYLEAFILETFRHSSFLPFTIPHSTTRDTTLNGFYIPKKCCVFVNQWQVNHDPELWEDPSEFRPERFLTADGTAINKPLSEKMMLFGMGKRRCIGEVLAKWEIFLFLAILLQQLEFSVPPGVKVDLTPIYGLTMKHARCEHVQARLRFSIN

SMILES	tested on	assay	system	conditions	how to read	quantity	value
CC(C)OCCOCc1ccc(OCC(O)CN(N=O)C(C)C)cc1 (stereo not shown)	Salmonella typhimurium	Ames test	TA1537	5000 µg/plate, 30 % rat S9	relative to: solvent control	revertant fold increase	0.7 fold
O=C1NC2(CC2)COc2ncc(F)cc2[C@H]2COCCN2c2ccn3ncc1c3n2	CHL cells	chromosomal aberration test	–	10 µg/mL, 24 h, without S9 mix	relative to: solvent control	relative population doubling	65.3%
CCCC[C@@H](CSS(=O)(=O)O)NC(C)C	Schistosoma mansoni	perfusion day 57	infected Swiss Webster mice	100 mg/kg	–	body weight	32.4 g and 30.6 g and 33.8 g
Cc1ncsc1-c1ccc(C(C)NC(=O)C2CC(O)CN2C(=O)C(NC(=O)CCCCCCCCCCN2CCCC(Nc3ncc(Cl)c(Nc4ccccc4S(=O)(=O)C(C)C)n3)C2)C(C)(C)C)cc1 (stereo not shown)	22Rv1	RNA-seq, measured: NBPF9 mRNA	–	concentration not given	relative to: DMSO	log2 fold change	-1.04
C=C(NC(=O)c1csc(-c2nc3c(cc2O)-c2nc(cs2)C(=O)NC(C(C)O)C(=O)NC(=C(C)OC)c2nc(cs2)C(=O)NC2c4nc(cs4)C(=O)NC(COC(=O)c4c5c6c(cccc6n4O)COC(=O)C(OC4CC(C)(O)C(N(C)C)C(C)O4)C2OC5)c2nc-3cs2)n1)C(N)=O (stereo not shown)	–	–	cynomolgus monkey, female, plasma	intravenous infusion, 3 mg/kg multiple doses, day 7	–	half-life	6.09 h
CC[C@H](C)NCC(SS(=O)(=O)O)c1ccccc1 (stereo partly shown)	Schistosoma mansoni	perfusion day 62	infected Swiss Webster mice	100 mg/kg	–	body weight	38.6 g and 38 g
CCN(CC)CC#CCNc1ccnc2cc(Cl)ccc12	Salmonella typhimurium	mini-Ames test	TA98	1000.0 µg/well, without S9	–	mean revertants	3 revertants/well
N#C[C@@H]1CCCN1C(=O)CNC(=O)c1ccnc2ccc(OCCCN3CCN(C(=O)CCc4ccc5c(c4)CN4CCN6CC(=O)[O][68Ga-]([O]C(=O)C4)([O]5)[O]c4ccc(CCC(=O)N5CCN(CCCOc7ccc8nccc(C(=O)NCC(=O)N9CCC[C@H]9C#N)c8c7)CC5)cc4C6)CC3)cc12	U-87 MG tumour model	–	host not given, muscle	1 h, tumour-bearing	–	tracer uptake	1.82 %ID/g
N#C[C@@H]1CC(F)(F)CN1C(=O)CNC(=O)c1ccnc2c(NC(=O)CCOCCOCCOCCOCCOCCOCCNC(=O)[C@H](CCCCNC(=O)CN3CCN(CC(=O)[O-])CCN(CC(=O)[O-])CCN(CC(=O)[O-])CC3)NC(=O)CCCc3ccc(I)cc3)cccc12.[177Lu+3]	U-87 MG tumour model	–	host not given, muscle	24 h, tumour-bearing	–	tracer uptake	0.32 %ID/g
O=C1C2CC3CC1CC(C(=O)N1CCN(c4ccc([N+](=O)[O-])c5ncccc45)CC1)(C3)C2	Salmonella typhimurium	Ames test	TA97a	0.78 µg/well, with S9	relative to: vehicle	revertant fold increase	1.1
COC1CN([C@H]2CC[C@H]([C@@]3(C)Oc4c(Cl)cc(C(=O)NCc5c(SC)cc(C)[nH]c5=O)c(C)c4O3)CC2)C1	–	RNA-seq, measured: HDAC11	human, whole blood	dose not given, 24 h	relative to: pretreatment baseline	log2 fold change	1.2
CC(C)Cc1ccc(C(C)C(=O)N[C@@H](CCCCNC(=O)CCOCCOCCOCCOCCOCCOCCNC(=O)CN2CCN(CC(=O)[O-])CCN(CC(=O)[O-])CCN(CC(=O)[O-])CC2)C(=O)Nc2cccc3c(C(=O)NCC(=O)N4CC(F)(F)C[C@H]4C#N)ccnc23)cc1.[177Lu+3] (stereo partly shown)	U-87 MG tumour model	–	host not given, muscle	1 h, tumour-bearing	–	tracer uptake	3.31 %ID/g
CNC(=O)C1CCCN(C(=O)C2CC3CCC2N3C(=O)[C@@H]2C[C@@H](O)CN2C(=O)NCc2cccc(Cl)c2F)C1 (mixture of isomers)	Cytochrome P450 1A2 (CYP1A2, Homo sapiens, UniProt P05177)	preincubation without NADPH	human	0.617 µM	relative to: negative control	remaining activity	97.4% and 102% and 93.1%

A few entries again:
SMILES	tested on	assay	system	conditions	how to read	quantity	value
O=C1NC2(CC2)COc2ncc(F)cc2[C@H]2COCCN2c2ccn3ncc1c3n2	CHL cells	chromosomal aberration test	–	10 µg/mL, 24 h, without S9 mix	relative to: solvent control	relative population doubling	65.3%
CCCC[C@@H](CSS(=O)(=O)O)NC(C)C	Schistosoma mansoni	perfusion day 57	infected Swiss Webster mice	100 mg/kg	–	body weight	32.4 g and 30.6 g and 33.8 g
